Measured values pooled from the literature.
Each numbered part is a random draw from the data of one study; scales do not carry over between parts.

Set 1
Target: Interferon regulatory factor 5, full length, phosphomimetic (IRF5, Homo sapiens, UniProt Q13568-2, residues 1-514, K96S/S451D/S453D/S456D/S462D)
Method: protein-binding microarray
Form: double-stranded DNA, one strand shown
Medium: in vitro
Tested at: 250 nM
Setting: 60-bp whole probe
Added: salmon DNA 0.4 mg/ml
Relative to: random background probes
Direction: higher = stronger binding
Constant ends, left off below: GCCTAGCAC … GTCTTGATTCGCTTGACGCTGCTG
Oligonucleotide | log fluorescence [z-score]
GTGTGCATCTATCTTAAATAGTGCTAG | -0.0858
TTATTTAGGATAGAACTATAGTGCTAG | 0.301
TTAGAGATCGGGTATCGATTAGTGCTA | 3.35
GTCATTTACATTTTAGTAGTGTGCTAG | 0.589
GTGGTTCTGCTTCTTAGCGCGTGCTAG | -0.203
GACGGTATCAACTATCGGGACGTGCTA | 2.17

Set 2
Target: Ras GTPase-activating protein-binding protein 1, full length (G3BP1, Homo sapiens, UniProt Q13283)
UniProt Q13283, sequence (whole entry, looked up): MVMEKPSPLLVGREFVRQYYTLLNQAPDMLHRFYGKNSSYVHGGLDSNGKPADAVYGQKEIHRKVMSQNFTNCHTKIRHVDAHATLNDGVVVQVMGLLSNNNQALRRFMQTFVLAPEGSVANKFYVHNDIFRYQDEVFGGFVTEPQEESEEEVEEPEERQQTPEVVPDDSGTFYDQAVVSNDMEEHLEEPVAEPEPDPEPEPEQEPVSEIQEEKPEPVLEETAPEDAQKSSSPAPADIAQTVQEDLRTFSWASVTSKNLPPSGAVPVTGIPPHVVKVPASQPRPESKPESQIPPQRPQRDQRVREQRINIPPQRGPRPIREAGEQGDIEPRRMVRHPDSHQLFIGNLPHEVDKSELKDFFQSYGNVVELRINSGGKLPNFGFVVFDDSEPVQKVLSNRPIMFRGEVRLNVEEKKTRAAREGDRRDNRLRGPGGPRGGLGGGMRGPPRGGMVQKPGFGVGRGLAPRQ
Method: RNA Bind-n-Seq
Form: RNA
Medium: in vitro
Tested at: 200 nM
Setting: whole 134-nt RNA, ends assumed
Added: 150 mM KCl
Relative to: input library
Direction: higher = stronger binding
Constant ends, left off below: GGGAGUUCUACAGUCCGACGAUC … UGGAAUUCUCGGGUGUCAAGG
Oligonucleotide | log2 enrichment
UAACUUUAGAGGAGGAUCUGAUGGAUAUGGCAGUGGACGUGGAUUUGGGGAUGGCUAUAAAGGGUAUGGAGGAGGACCUGGAGGUGGCAA | 0.363
CCUGUGCUACACAUCGUAUGUACCGAAUCGGGAAAAAAAGGAAAAAAAGGGAAAAAAAGGAAAGUAUUAUGUUACGCCGUUCGGAUCUGC | -0.817
UCAAGUCCUGUGCUACACAUCGUAUGUACCGAAUCGGUUUUUUUGGAAAGGAGGAAAGUAUUAUGUUACGCCGUUCGGAUCUGCACUUCC | -0.699
GUCCUGUGCUACACAUCGUAUGUACCGAAUCGGCCCCCCGGCCCCCCGGCCCCCCGGGGAAAGUAUUAUGUUACGCCGUUCGGAUCUGCA | 0.0127
GCAGGAAGUAAAAACAAAUGGAAAUGCUUCGGAUAGUGGCAGGGGUGUGGGUUGCUAAGGAAAGGGUGGGAUGGGAGUGGGUAAAGAGUU | 0.982

Set 3
Target: Histone acetyltransferase KAT6A, winged helix 1, GST fusion (KAT6A, Homo sapiens, UniProt Q92794, residues 1-85)
Method: protein binding microarray
Form: double-stranded DNA, one strand shown
Medium: in vitro
Tested at: not given
Setting: 8-mer, flanks averaged, mean of 2 arrays, mostly near background
Relative to: not given
Direction: higher = stronger binding
Residues (chain): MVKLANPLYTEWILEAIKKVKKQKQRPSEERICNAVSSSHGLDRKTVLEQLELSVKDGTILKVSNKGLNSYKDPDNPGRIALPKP
Oligonucleotide | E-score
AAATTACC | 0.0455
ACAACGTG | -0.0405
TCTCGTAA | 0.076
AAAGAGTA | -0.085
CACATTAG | -0.181
AGAATTCA | -0.228
GCTTTGCA | -0.0269

Mixed results
Substance | target | test | test system | conditions | scale | measurement | result
PhoQ, residues 284 288 289 292 302 303 TLASMF | PhoP, residues 12 14 15 18 19 QQAYL (Escherichia coli, UniProt P23836) | Sort-seq, item: YFP reporter | E. coli | PhoQ-PhoP variant library, added: 10 µM Mg2+ | relative to: high Mg2+ state, higher = stronger signaling | fold induction | 1.97

Some of these lines once more (set 3):
Oligonucleotide | E-score
AGAATTCA | -0.228
GCTTTGCA | -0.0269
